Results collected from several papers.
Numbered parts are unrelated; each lists some results of a single study. Substitutions count along the parent as printed.
UniProt P07948, sequence (whole entry, looked up): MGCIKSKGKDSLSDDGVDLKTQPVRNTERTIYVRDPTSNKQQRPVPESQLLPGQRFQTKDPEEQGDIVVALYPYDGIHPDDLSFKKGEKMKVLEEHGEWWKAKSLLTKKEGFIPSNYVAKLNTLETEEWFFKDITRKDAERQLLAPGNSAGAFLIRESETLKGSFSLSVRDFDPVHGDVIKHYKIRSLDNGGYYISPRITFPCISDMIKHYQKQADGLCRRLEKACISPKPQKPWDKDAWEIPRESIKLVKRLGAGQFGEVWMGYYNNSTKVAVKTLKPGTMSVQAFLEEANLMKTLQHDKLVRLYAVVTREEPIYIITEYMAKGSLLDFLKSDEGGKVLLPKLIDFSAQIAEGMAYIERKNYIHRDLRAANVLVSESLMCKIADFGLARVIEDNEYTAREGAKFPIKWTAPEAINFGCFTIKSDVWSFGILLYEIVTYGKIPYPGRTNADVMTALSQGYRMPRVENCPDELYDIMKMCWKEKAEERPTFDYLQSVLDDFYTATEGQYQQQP

Set 1 — technique: RNA Bind-n-Seq; form: RNA; medium: in vitro; concentration: 200 nM; notes: whole 134-nt RNA, ends assumed; added: 150 mM LiCl; relative to: input library; reading: higher = stronger binding; library: 7-deaza-guanosine replaces G
Target: Fragile X messenger ribonucleoprotein 1, C-terminal low-complexity region (Fmr1, Mus musculus, UniProt P35922)
Constant ends, left off below: GGGAGUUCUACAGUCCGACGAUC … UGGAAUUCUCGGGUGUCAAGG
| Strand | log2 enrichment |
| --- | --- |
| UUGAGAUUGGGUGGAUUCCUAUCAUCUGGAAUUCUGACUCCUCGGGUCUCCUUCUCUAGGUAGCCCAGCAGCAGUGAAGAUGCAGACUGA | -1.83 |
| AGUCCUGUGCUACACAUCGUAUGUACCGAAUCGGAAAGGAAAAAAAGGUUUUUUUGGAAAGUAUUAUGUUACGCCGUUCGGAUCUGCACU | -2.77 |
| ACCUUGCAGGUGGGCAUCUUUGGGAAGUGGGGCAAGGGGGGGAUAGGGAGGGGGGUAACACUUUGGGAACAGGUGGUCCCAGGUCGUUUC | 0.839 |
| ACCAUGCAGGUGGGCAUCUUUGGGAAGUGGGGCAAGGGGGGGAUAGGGUGGGGGGUAACACUUUGGGAACAGGUGGUCCCAGGUCGUUUC | 1.48 |
| UAACUUUAGAGGAGGAUCUGAUGGAUAUGGCAGUGGACGUGGAUUUGGGGAUGGGUAUAAUGGGUAUGGAGGAGGACCUGGAGGUGGCAA | 1.43 |
| GUCCUGUGCUACACAUCGUAUGUACCGAAUCGGAAAAAGGUUUUUUUGGUUUUUUUGGAAAGUAUUAUGUUACGCCGUUCGGAUCUGCAC | -2.72 |
| UUCCUCAAGUCCUGUGCUACACAUCGUAUGUACCGAAUCGGCGGCGGGCGGAAAGUAUUAUGUUACGCCGUUCGGAUCUGCACUUCCAGC | 0.922 |
| AAGUCCUGUGCUACACAUCGUAUGUACCGAAUCGGGGAAAAGGAAAAGGGAAAAGGAAAGUAUUAUGUUACGCCGUUCGGAUCUGCACUU | -0.908 |

Set 2 — technique: RNA Bind-n-Seq; form: RNA; medium: in vitro; concentration: not given; relative to: input RNA pool; reading: higher = stronger binding
Target: RING finger protein unkempt homolog, zinc fingers 1-6, GST-SBP tag (UNK, Homo sapiens, UniProt Q9C0B0, residues 30-357)
UniProt Q9C0B0, sequence (30-357, looked up): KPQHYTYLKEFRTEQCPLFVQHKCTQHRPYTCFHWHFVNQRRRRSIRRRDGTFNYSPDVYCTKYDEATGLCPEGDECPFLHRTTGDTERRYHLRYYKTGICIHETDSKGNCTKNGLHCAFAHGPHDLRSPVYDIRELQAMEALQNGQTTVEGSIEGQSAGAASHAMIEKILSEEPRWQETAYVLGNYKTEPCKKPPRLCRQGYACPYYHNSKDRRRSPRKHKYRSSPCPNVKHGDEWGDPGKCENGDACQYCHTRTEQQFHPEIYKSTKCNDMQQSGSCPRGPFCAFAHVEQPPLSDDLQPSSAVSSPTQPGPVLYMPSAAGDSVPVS
Notes: RNA with constant flanks, human and mouse sites, ends assumed
Constant ends, left off below: GGGAGUUCUACAGUCCGACGAUC … CAACAGAGGAUUGAGCAUCA
| Strand | bound/input enrichment |
| --- | --- |
| AGUAAAAAGCAAGGUUAUCCAGCACUUCAUGCAUUCAGUACAUUCUUCUAUCCUAAGCUAAAGUCUGGAGGUUACCAAGCAGUGAAAAGAUGGACCAAAGGGGUAAAUCUCUUCGAACAA | 0.169 ratio |
| UAAUUUUGGUCUGCUUAUUUUUAGAUAAAAUUGAAAGGAAUUGUAUAAAUCAAUUAACAUAUUAGCUGAGUUGUCCAACACAUGGUAUAAACGAAUUACAACAGUAAACUAUUACACAUU | 6.39 ratio |
| AUUUUUUUUUUAAAUGGGCUGUUUUUAAUGCAGGGGCUUUUCUUCCCUAGAAACCCAAUUCUAAGCAGAAAAAGAAAAAAAACACAAAAAAUAAAAAACCCCUACAAAAAAACUUUAAAA | 0.408 ratio |
| UAUGAAGUGUAUAGUUCCUCAGCAGGACCUGCGGUCAGACAUAAGUGCCUUAGAGCAAUUCUUAGGAUAAUUUAUUUUGCGGAUGCUGAACUUCUGAAGGAUGUUCUGAAAAAUCAUGCU | 2.04 ratio |
| CAGCGCCGAGGCCGCGGUUUCCCCCUGGGCCUCCCCAGCAGCAGCCAUGGGCAUCAAAUUUUUAGAAGUUAUCAAACCAUUCUGUGCAGUUCUACCAGAAAUUCAGAAACCGGAAAGGAA | 1.59 ratio |
| UCCUAGAGCCCAGUAGUUUUGACUUGUGUGAUGGGGACACAGUACAGCCUGAAGCUUCUUUUAGUCUCAGCACGGAGGGGCAAUGCCACUGGGUAGGACUUCUACUUCUUGUUUUUCCUC | 0.147 ratio |
| GGAAUUUGUAAGAAGAACCAUGAUCAGCAUCUUCUUUUACUGUGUGACACCUGUAAACUGCAUUAUCAUCUCGGCUGCCUUGAUCCUCCUCUUACAAGGAUGCCGAGAAAGACGAAAAAC | 0.228 ratio |
| CCCACCCACCUACCAGCACUUAAGGCCUAGGACACAAGGUCUGUGUGGCCUCCCAGGCUGUAGGUACCCUCAUCUGCAGAAAAUCAGGGACUAGGAGCAGAGCCCCUCACUGAGCAUGUC | 0.183 ratio |

Set 3 — target: CCNA2, cyclin fold, Cln2 fusion (human); technique: yeast growth competition, sequencing; medium: yeast; notes: strong parent motif; relative to: not given; reading: higher = stronger binding; parent: viral docking peptide; CKVKRKLFGSENI
| Substitution | normalised enrichment score |
| --- | --- |
| CKVKAKLFGSENI [R5A] | 1.07 |
| CKVKRKLAGSENI [F8A] | 1.22 |
| CKVKRKLLGSENI [F8L] | 0.686 |
| CKVKRKLFGSENA [I13A] | 5.83 |
| CKVKRKLFGAENI [S10A] | 5.3 |
| AKVKRKLFGSENI [C1A] | 5.22 |
| CKVKRKLFGSANI [E11A] | 4.44 |

Further values, each from its own experiment
| SMILES | target | effect on | technique | measurement | value |
| --- | --- | --- | --- | --- | --- |
| Cc1cc(NC(=O)c2cccc(S(F)(F)(F)(F)F)c2)cc(-n2ccn3nc(-c4cccnc4)cc23)c1 | Tyrosine-protein kinase Lyn (LYN, Homo sapiens, UniProt P07948) | target engagement in cells | BRET | EC50 | > 50 µM |

For quick reference, copied from above (set 2):
| Strand | bound/input enrichment |
| --- | --- |
| UAAUUUUGGUCUGCUUAUUUUUAGAUAAAAUUGAAAGGAAUUGUAUAAAUCAAUUAACAUAUUAGCUGAGUUGUCCAACACAUGGUAUAAACGAAUUACAACAGUAAACUAUUACACAUU | 6.39 ratio |
